{"data": "Measurements pooled from the literature", "note": "Every numbered part comes from another study and shows a few of its results, in no order."}
{"data": "Series 1", "target": "Interferon regulatory factor 7, full length, phosphomimetic (IRF7, Homo sapiens, UniProt Q92985, residues 1-503, S471D/S472D/S475D/S476D/S477D/S483D/S484D/S487D)", "method": "protein-binding microarray", "molecule type": "double-stranded DNA, one strand shown", "medium": "in vitro", "concentration": "2200 nM top", "notes": "60-bp whole probe", "added": "salmon DNA 0.4 mg/ml", "reference": "random background probes", "reading": "higher = stronger binding", "all sequences stand within": "GCCTAGCAC … GTCTTGATTCGCTTGACGCTGCTG", "Residues (chain)": "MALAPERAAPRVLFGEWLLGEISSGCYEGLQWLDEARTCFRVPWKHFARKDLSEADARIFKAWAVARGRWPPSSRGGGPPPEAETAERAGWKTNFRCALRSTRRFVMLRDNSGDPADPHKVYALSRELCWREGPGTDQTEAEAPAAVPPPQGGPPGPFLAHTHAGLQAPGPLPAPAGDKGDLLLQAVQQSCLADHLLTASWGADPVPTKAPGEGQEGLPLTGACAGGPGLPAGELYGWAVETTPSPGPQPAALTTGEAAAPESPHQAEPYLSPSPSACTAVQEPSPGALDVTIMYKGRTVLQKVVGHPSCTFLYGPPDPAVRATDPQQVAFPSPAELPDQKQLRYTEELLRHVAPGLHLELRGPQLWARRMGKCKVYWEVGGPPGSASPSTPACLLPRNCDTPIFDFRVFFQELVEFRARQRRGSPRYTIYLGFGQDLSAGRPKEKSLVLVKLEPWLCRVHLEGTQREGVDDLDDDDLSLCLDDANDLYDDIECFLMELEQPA"}
{"Sequence": "TCAACACTGGTTTTTACACTGTGCTAG", "fitted relative affinity [z-score]": 0.598}
{"Sequence": "TCATAGTTTCTTTTCTTACTGTGCTAG", "fitted relative affinity [z-score]": 4.53}
{"Sequence": "TTAGGTATCGGTCACGGTTAGTGCTAG", "fitted relative affinity [z-score]": 0.18}
{"Sequence": "GACTGTCTCCTTTTCCTGACGTGCTAG", "fitted relative affinity [z-score]": 1.84}
{"Sequence": "TTAGCTTTCGACTTTCGGTTAGTGCTA", "fitted relative affinity [z-score]": 11.5}
{"Sequence": "GACAGACTGGGTTTCGGGACGTGCTAG", "fitted relative affinity [z-score]": 1.73}
{"Sequence": "TCATTTCTCCTTTGTAAACTGTGCTAG", "fitted relative affinity [z-score]": 3.27}
{"Sequence": "TCAGGCTTCTATGTAGTACTGTGCTAG", "fitted relative affinity [z-score]": 0.275}
{"Sequence": "TTTGATATCGGGTATCGATTAGTGCTA", "fitted relative affinity [z-score]": 0.611}
{"Sequence": "ACCGATTTCCTTCACCCACTGTGCTAG", "fitted relative affinity [z-score]": 2.71}
{"Sequence": "TTAGGTTTCGACACTGGGCTAGTGCTA", "fitted relative affinity [z-score]": 2}
{"Sequence": "TTAGGTATCGACAATGGGTTAGTGCTA", "fitted relative affinity [z-score]": -0.042}
{"Sequence": "GACGATTTGGGGTATCGAGACGTGCTA", "fitted relative affinity [z-score]": 0.647}
{"Sequence": "GACGGTTTCGGGTTTCGGGCCGTGCTA", "fitted relative affinity [z-score]": 9.21}
{"Sequence": "CTAATATTGAGACTCATGGGGTGCTAG", "fitted relative affinity [z-score]": -0.156}
{"Sequence": "GACGGACTCCTTATCCTGACGTGCTAG", "fitted relative affinity [z-score]": 1.13}
{"Sequence": "TCAAAAATGAATATTAGACTGTGCTAG", "fitted relative affinity [z-score]": -1.05}
{"Sequence": "GAACCTTCAGCTCTAGGTTCGTGCTAG", "fitted relative affinity [z-score]": 1.45}
{"Sequence": "TCACCTGAATGAAAACATACTGTGCTA", "fitted relative affinity [z-score]": 0.116}
{"data": "Series 2", "target": "Histone acetyltransferase KAT6A, both winged helices, GST fusion (KAT6A, Homo sapiens, UniProt Q92794, residues 1-181)", "method": "protein binding microarray", "molecule type": "double-stranded DNA, one strand shown", "medium": "in vitro", "concentration": "not given", "notes": "8-mer, flanks averaged, mean of 2 arrays, mostly near background", "reference": "not given", "reading": "higher = stronger binding", "Construct (chain)": "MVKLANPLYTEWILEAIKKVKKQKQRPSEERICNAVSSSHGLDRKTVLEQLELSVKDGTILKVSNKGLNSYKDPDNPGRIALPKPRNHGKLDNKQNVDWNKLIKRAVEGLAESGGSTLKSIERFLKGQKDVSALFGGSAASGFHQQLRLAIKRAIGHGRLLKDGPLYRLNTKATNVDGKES"}
{"Sequence": "ACCTAGCG", "E-score": 0.255}
{"Sequence": "AGCAAACG", "E-score": -0.0837}
{"Sequence": "CCTATCGC", "E-score": 0.129}
{"Sequence": "AGCAAAAT", "E-score": -0.0963}
{"Sequence": "ATCGCGTG", "E-score": 0.229}
{"Sequence": "TACCATGA", "E-score": -0.104}
{"Sequence": "CAGACGTC", "E-score": -0.0308}
{"Sequence": "TTATAAAA", "E-score": 0.0272}
{"Sequence": "TAGGTACA", "E-score": -0.185}
{"Sequence": "GTGCACCA", "E-score": -0.218}
{"Sequence": "AGACTGTG", "E-score": -0.211}
{"Sequence": "GAAGAGCC", "E-score": 0.101}
{"Sequence": "ACATTCCG", "E-score": 0.11}
{"Sequence": "GCCTCGAC", "E-score": 0.0635}
{"Sequence": "GACCTTAC", "E-score": -0.0257}
{"Sequence": "CGAATCAA", "E-score": 0.0246}
{"Sequence": "GCCTGCCC", "E-score": 0.0305}
{"Sequence": "CGCGTCAA", "E-score": 0.258}
{"Sequence": "AACTTTGA", "E-score": -0.0391}
{"Sequence": "GTATGTTA", "E-score": 0.035}
{"Sequence": "AGTGCCGG", "E-score": 0.181}
{"Sequence": "CCGGAAGA", "E-score": 0.162}
{"Sequence": "TCATGTCA", "E-score": -0.0387}
{"Sequence": "CAAACGCA", "E-score": 0.0783}
{"data": "Series 3", "target": "RNA binding protein fox-1 homolog 2, RRM domain, GST-SBP tag (RBFOX2, Homo sapiens, UniProt O43251-10, residues 100-194)", "method": "RNA Bind-n-Seq", "molecule type": "RNA", "medium": "in vitro", "concentration": "365 nM", "notes": "natural RNA segment, single round, ends assumed", "reference": "no-protein control", "reading": "higher = stronger binding", "all sequences stand within": "GGGAGUUCUACAGUCCGACGAUC … UGGAAUUCUCGGGUGCCAA", "Residues (chain)": "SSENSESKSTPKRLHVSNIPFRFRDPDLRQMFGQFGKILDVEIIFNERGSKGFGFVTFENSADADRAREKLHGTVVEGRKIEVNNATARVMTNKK"}
{"Sequence": "GUGUGCACUCGUGGCUGCACAGAUGAAGCCCAUGCUGAGUCUGUGGGAACACCCACACUCAGUGCACCCUGUGGGUGACCCUCCCUACACAGUGCAGAGCAGAGCCCAGG", "RBNS enrichment (R)": 0.283}
{"Sequence": "UCCUUGCACCUGCAUCCGUAGUUCCCUGAAAACCCAGAGAGGAAUCAGACUUCACACUGCAAGAGCCUUGGUGUCCACCUGGCCCCAUGUCUCUCAGAAUUCUUCAGGUG", "RBNS enrichment (R)": 0.787}
{"Sequence": "CAACCUCUGCCCCCUCCUCCCAGAGCAGAUGGGGUCUGGAUGGGGAGCAGAGGGCACCCCAGGCCCUUCUUGCUCCACAGUCCCCCGCCCGCAGCAUACUCCACUCAUAA", "RBNS enrichment (R)": 0.357}
{"Sequence": "UUCCGAGUUUCCAGCUAGUCCUAGAGUUCUAUAUUUCUACAUAGUUGAAUUAUUUUAUCAUGCUGUUGCUGGGGAAUAUGACUAACCCUUUUGAAGCUACUAAUUUUAUG", "RBNS enrichment (R)": 0.45}
{"Sequence": "CCACUUUAUUCAACUCCUUUACUUUCCUAGCCGGUUGAGGAGGGACCAUGAGAACAGAAAUUACCUUGUGACAAGACAAGUGUUCUCAGUUUUCUCCUCACAUAUUGACG", "RBNS enrichment (R)": 0.456}
{"Sequence": "ACUAACCCCACUCCCAUGAAGAAUUGCCUGGAAAGAUGUUUUCAAGGAAUUUGAACCAUAAAACACUAUCUGAUGCACAGAACACCUCUACUUUGAGACUCACCUCUCAU", "RBNS enrichment (R)": 0.625}
{"Sequence": "UUUCUUCUCCCAAUGCCUCUUGCUGGAAGCACUCUAUACCUCUCCACCUCCCUGGACUACUAAGCUGGAGACCUACUGGCCACAUGUCUGAAAAAAUGUUCCCUGGCUAG", "RBNS enrichment (R)": 0.793}
{"Sequence": "CGCAGUAAACAACAGAGGGGUUGCUGGACUUGAGGGUGACGAGACAGAUGAUCAUAGCAGGGAUUUGAAAUAUGAAUUAUGGUUACAUGGUCCUGAUUUUUUUUUUUUGG", "RBNS enrichment (R)": 1}
{"data": "Series 4", "target": "Prothrombin, mature alpha-thrombin (F2, Homo sapiens, UniProt P00734)", "method": "aptamer microarray, sandwich", "molecule type": "DNA with 2'F-ANA", "medium": "in vitro", "concentration": "200 nM", "notes": "whole 15-mer aptamer, many near background", "added": "Cy3 exosite-II aptamer, 400 nM", "reading": "higher = stronger binding", "sequence": "GGTTGGTGTGGTTGG"}
{"Modification": "2'F-ANA at 2 4 5 6 9 10 11 12 13 15", "mean fluorescence intensity [a.u.]": 57.9}
{"Modification": "2'F-ANA at 1 3 6 7 8 9 10 14 15", "mean fluorescence intensity [a.u.]": 59.4}
{"Modification": "2'F-ANA at 2 5 6 7 11 12 14", "mean fluorescence intensity [a.u.]": 83.3}
{"Modification": "2'F-ANA at 1 2 4 6 9 10 11 12 13 14", "mean fluorescence intensity [a.u.]": 46.1}
{"Modification": "2'F-ANA at 1 2 3 4 6 7 8 10 11 13 15", "mean fluorescence intensity [a.u.]": 55.3}
{"Modification": "2'F-ANA at 3 4 7 9 11", "mean fluorescence intensity [a.u.]": 612}
{"Modification": "2'F-ANA at 8 9 12 13", "mean fluorescence intensity [a.u.]": 696}
{"Modification": "2'F-ANA at 1 5 8 9 10 11 12", "mean fluorescence intensity [a.u.]": 45.7}
{"Modification": "2'F-ANA at 2 4 5 6 8 13", "mean fluorescence intensity [a.u.]": 55}
{"Modification": "2'F-ANA at 1 5 6 8 9 13 14 15", "mean fluorescence intensity [a.u.]": 48.9}
{"Modification": "2'F-ANA at 3 7 12 14", "mean fluorescence intensity [a.u.]": 819}
{"Modification": "2'F-ANA at 1 2 4 5 10 14", "mean fluorescence intensity [a.u.]": 52.3}
{"Modification": "2'F-ANA at 2 4 5 8 10 11 13 14 15", "mean fluorescence intensity [a.u.]": 49.1}
{"Modification": "2'F-ANA at 6 7 10 11 12", "mean fluorescence intensity [a.u.]": 205}
{"Modification": "2'F-ANA at 4 6 8 9 11 15", "mean fluorescence intensity [a.u.]": 209}
{"Modification": "2'F-ANA at 1 6 7 9 11 12", "mean fluorescence intensity [a.u.]": 206}
{"Modification": "2'F-ANA at 1 2 4 5 14 15", "mean fluorescence intensity [a.u.]": 44.8}
{"Modification": "2'F-ANA at 1 2 9 13 14 15", "mean fluorescence intensity [a.u.]": 50.8}
{"Modification": "2'F-ANA at 3 4 5 8 10 11 12 13 15", "mean fluorescence intensity [a.u.]": 54.2}
{"Modification": "2'F-ANA at 1 2 3 5 6 8 11 13 14", "mean fluorescence intensity [a.u.]": 69.2}
{"Modification": "2'F-ANA at 1 2 3 5 6 8 10 11 13 14", "mean fluorescence intensity [a.u.]": 48.1}
{"Modification": "2'F-ANA at 1 2 6 7 11 15", "mean fluorescence intensity [a.u.]": 117}
{"Modification": "2'F-ANA at 2 4 15", "mean fluorescence intensity [a.u.]": 359}
{"Modification": "2'F-ANA at 1 3 6 7 8 11 13 14", "mean fluorescence intensity [a.u.]": 90.4}
{"note": "Repeated from above (series 4):"}
{"Modification": "2'F-ANA at 1 2 3 4 6 7 8 10 11 13 15", "mean fluorescence intensity [a.u.]": 55.3}
{"Modification": "2'F-ANA at 3 4 7 9 11", "mean fluorescence intensity [a.u.]": 612}
{"Modification": "2'F-ANA at 8 9 12 13", "mean fluorescence intensity [a.u.]": 696}
{"Modification": "2'F-ANA at 1 5 8 9 10 11 12", "mean fluorescence intensity [a.u.]": 45.7}
{"Modification": "2'F-ANA at 2 4 5 6 8 13", "mean fluorescence intensity [a.u.]": 55}
{"Modification": "2'F-ANA at 1 5 6 8 9 13 14 15", "mean fluorescence intensity [a.u.]": 48.9}
{"Modification": "2'F-ANA at 3 7 12 14", "mean fluorescence intensity [a.u.]": 819}
{"Modification": "2'F-ANA at 1 2 4 5 10 14", "mean fluorescence intensity [a.u.]": 52.3}
{"Modification": "2'F-ANA at 2 4 5 8 10 11 13 14 15", "mean fluorescence intensity [a.u.]": 49.1}
{"Modification": "2'F-ANA at 6 7 10 11 12", "mean fluorescence intensity [a.u.]": 205}
{"Modification": "2'F-ANA at 4 6 8 9 11 15", "mean fluorescence intensity [a.u.]": 209}
{"Modification": "2'F-ANA at 1 6 7 9 11 12", "mean fluorescence intensity [a.u.]": 206}
